Assay results from different studies.
Lines come from different studies, so protocols differ. Several values in a cell are separate wells, animals, samples, runs or records. ± gives the spread as reported.

SMILES | tested on | assay | system | setting | how to read | measurement | value
COc1ccccc1-c1n[nH]c2nc(NC3CCN(C(=O)Cc4ccc(F)cc4F)CC3)ncc12 | – | bead binding, competition bead pull-down, item: LINJ.23.0120 | Leishmania donovani extract | 10 µM | reference: vehicle | relative abundance | 1.01
Cc1ccc(N2CC3CC(C2)N3C)cc1C(=O)NC1(c2ccc3c4c(cccc24)C(=O)N3C)CC1 | human coronavirus 229E | viral replication | Huh-7 | 50 µM | – | inhibition | 100%
N#Cc1cccc(/C=C/C(=O)c2ccc(O)cc2)c1 | U-87 MG | item: STX1A | – | concentration not given | reference: untreated | mRNA level | 0.037 fold
CC(C)CC(C(=O)N1CC2(CC1C#N)C(=O)Nc1ccccc12)N(C)C(=O)c1cc2c(F)cc(F)c(F)c2[nH]1 (stereo not shown) | Human coronavirus 229E | cytopathic effect | MRC5 | 1.53 nM | – | inhibition | 22.6%
COc1ccccc1-c1n[nH]c2nc(N[C@H]3CC[C@H](NS(=O)(=O)CC(C)C)CC3)ncc12 | – | bead binding, competition bead pull-down, item: LINJ.30.1580 | Leishmania donovani extract | 10 µM | reference: vehicle | relative abundance | 0.11
O=C1NC2(CC2)COc2ncc(F)cc2[C@H]2COCCN2c2ccn3ncc1c3n2 | – | – | Sprague-Dawley rat, female, serum | oral, 5 mg/kg/day, end of recovery, 4-week repeated-dose toxicity | – | albumin/globulin ratio | 2.42 ± 0.53
CCOC(=O)C1(C)Oc2cc(F)ccc2N(C)C1=O (stereo not shown) | Arabidopsis thaliana | stem length, petri dish germination | Col-0, 1/2 MS medium | 50 µg/mL, 7 days, 22 °C, dark | – | inhibition | 65.8%
CN1CCN(c2cccc(-c3ccc4ncnc(Nc5ccc(OCc6cccc(F)c6)c(Cl)c5)c4c3)c2)CC1 | Plasmodium falciparum | parasite growth, SYBR Green fluorescence | W2, drug-resistant | – | – | EC50 | 0.059 µM
Cc1cc(C(=O)Nc2nc3cccc(C)c3n2[C@H]2CCCCN(C(=O)/C=C/CN(C)C)C2)ccn1 | Trypanosoma brucei brucei | – | 2T1 CLK1 overexpressing | 0.625 µM, compound pretreated | reference: maximum | survival | 196% and 194% and 185% and 208%
C1=[N+]2CCCC[N+]3=Cc4ccc5[n]4[Au-]23[n]2c1ccc2-c1nc2ccccc2nc1-5.F[P-](F)(F)(F)(F)F | IGROV-1 | – | – | NCI60 five-dose screen | – | IC50 | 4.7 µM
Cc1cc(Oc2nc(N3CC[C@@H](c4ccncc4)C3)ncc2F)[nH]n1 | Mycobacterium tuberculosis | OD | H37Rv PurF CRISPRi knockdown | 6.1e-05 µM, together with: anhydrotetracycline low | – | normalised growth | 95%
CC[C@H](C)CCCCC(=O)N[C@@H](CCN)C(=O)N[C@H](C(=O)N[C@@H](CCN)C(=O)N[C@H]1CCNC(=O)[C@H]([C@@H](C)O)NC(=O)[C@H](CCN)NC(=O)[C@H](CCN)NC(=O)[C@H](CC(C)C)NC(=O)[C@@H](CC(C)C)NC(=O)[C@H](CCN)NC1=O)[C@@H](C)O | Escherichia coli | daily serial passaging | ATCC 8739 | highest sub-MIC, 40 days | reference: initial MIC | MIC fold change | 2.63
CC(C)(C)C(=O)OCOP(=O)(OCOC(=O)C(C)(C)C)C1CCCN(O)C1=O (stereo not shown) | MOLT-4 | – | – | – | – | CC50 | > 100 µM
